Results collected from several papers.
Every numbered part comes from another study and shows a few of its results, in no order.
UniProt P42336, sequence (whole entry, unmodified, looked up): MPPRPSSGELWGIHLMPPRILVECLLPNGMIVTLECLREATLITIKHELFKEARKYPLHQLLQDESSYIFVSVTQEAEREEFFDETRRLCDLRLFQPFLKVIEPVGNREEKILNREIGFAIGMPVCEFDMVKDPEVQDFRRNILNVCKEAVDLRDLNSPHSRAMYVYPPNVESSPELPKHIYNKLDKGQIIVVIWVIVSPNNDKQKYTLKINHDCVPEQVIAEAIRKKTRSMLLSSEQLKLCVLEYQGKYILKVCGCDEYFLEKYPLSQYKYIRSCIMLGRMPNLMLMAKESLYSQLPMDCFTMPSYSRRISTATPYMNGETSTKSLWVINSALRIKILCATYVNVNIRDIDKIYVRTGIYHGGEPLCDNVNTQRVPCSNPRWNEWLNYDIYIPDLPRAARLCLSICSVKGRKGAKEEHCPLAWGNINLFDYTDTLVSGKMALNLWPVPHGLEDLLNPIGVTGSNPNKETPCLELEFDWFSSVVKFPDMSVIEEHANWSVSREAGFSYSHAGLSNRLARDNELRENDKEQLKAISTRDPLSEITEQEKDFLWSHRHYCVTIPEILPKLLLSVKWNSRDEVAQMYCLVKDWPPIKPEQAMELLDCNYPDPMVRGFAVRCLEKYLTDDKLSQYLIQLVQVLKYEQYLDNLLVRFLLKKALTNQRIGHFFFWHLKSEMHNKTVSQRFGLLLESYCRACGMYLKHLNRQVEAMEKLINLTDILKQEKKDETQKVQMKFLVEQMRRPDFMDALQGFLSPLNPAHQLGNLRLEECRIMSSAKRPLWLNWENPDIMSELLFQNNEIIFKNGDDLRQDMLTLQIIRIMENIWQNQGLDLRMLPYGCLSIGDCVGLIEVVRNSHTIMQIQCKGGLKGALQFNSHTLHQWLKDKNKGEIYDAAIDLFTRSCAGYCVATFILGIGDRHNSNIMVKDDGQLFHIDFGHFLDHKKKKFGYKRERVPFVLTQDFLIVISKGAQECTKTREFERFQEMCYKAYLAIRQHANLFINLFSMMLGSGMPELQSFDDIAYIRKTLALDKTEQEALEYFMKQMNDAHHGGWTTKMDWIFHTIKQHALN
UniProt Q9H093, sequence (whole entry, looked up): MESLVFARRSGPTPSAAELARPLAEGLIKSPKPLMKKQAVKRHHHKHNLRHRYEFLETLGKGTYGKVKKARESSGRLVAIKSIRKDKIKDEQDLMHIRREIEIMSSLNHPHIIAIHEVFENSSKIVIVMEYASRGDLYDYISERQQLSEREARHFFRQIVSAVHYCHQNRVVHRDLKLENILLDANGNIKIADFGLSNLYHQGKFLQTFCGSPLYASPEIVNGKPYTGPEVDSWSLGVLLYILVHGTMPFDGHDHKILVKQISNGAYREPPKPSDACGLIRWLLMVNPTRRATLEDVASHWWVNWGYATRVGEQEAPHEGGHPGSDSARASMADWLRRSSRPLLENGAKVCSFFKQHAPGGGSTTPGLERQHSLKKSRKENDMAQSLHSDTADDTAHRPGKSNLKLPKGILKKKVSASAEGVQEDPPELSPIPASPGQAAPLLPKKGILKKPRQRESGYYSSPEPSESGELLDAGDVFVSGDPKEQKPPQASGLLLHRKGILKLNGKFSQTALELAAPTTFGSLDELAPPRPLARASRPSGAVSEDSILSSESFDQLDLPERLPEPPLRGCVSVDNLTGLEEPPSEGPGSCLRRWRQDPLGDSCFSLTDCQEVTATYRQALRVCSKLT
UniProt Q9Y6R4, sequence (whole entry, looked up): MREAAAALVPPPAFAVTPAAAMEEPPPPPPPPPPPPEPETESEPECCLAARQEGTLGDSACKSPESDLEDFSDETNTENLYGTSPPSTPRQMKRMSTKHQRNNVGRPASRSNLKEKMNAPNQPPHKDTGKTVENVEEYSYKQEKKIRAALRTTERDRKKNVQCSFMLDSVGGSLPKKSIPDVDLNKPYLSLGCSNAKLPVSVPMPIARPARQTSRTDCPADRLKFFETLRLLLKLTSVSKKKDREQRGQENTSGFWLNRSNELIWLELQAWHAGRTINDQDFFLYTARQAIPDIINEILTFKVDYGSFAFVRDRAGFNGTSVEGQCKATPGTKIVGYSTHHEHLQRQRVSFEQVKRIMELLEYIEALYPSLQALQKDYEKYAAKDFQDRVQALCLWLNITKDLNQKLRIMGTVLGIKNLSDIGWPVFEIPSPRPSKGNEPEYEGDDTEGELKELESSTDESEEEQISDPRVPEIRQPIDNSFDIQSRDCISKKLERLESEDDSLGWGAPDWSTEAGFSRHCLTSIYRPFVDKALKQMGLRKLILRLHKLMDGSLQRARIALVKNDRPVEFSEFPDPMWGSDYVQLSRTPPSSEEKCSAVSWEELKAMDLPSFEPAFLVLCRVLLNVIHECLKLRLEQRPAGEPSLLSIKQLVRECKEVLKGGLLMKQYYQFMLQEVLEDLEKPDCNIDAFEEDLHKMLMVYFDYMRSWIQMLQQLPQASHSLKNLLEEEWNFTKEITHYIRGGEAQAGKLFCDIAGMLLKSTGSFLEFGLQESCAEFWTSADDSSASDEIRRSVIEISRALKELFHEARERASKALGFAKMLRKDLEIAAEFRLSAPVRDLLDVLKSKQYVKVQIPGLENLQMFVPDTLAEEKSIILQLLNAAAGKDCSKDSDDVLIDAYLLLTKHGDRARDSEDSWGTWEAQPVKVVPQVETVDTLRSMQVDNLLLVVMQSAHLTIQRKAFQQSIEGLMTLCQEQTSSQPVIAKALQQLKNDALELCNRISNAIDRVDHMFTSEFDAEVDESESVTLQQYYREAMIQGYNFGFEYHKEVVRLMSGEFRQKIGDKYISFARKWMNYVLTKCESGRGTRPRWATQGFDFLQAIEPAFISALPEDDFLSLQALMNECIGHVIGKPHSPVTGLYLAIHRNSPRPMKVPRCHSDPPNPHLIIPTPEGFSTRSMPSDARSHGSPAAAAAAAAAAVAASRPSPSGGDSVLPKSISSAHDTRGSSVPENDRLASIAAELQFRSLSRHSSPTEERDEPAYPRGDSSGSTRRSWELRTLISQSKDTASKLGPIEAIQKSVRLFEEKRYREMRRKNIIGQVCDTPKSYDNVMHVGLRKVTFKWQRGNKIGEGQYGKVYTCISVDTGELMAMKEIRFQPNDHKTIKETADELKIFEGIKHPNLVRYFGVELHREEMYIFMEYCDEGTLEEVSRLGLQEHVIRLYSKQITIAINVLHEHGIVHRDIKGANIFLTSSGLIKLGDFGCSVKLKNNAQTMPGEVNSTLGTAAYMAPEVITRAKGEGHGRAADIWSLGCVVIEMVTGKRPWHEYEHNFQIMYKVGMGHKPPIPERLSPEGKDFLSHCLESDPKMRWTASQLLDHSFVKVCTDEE
UniProt P23458, sequence (whole entry, looked up): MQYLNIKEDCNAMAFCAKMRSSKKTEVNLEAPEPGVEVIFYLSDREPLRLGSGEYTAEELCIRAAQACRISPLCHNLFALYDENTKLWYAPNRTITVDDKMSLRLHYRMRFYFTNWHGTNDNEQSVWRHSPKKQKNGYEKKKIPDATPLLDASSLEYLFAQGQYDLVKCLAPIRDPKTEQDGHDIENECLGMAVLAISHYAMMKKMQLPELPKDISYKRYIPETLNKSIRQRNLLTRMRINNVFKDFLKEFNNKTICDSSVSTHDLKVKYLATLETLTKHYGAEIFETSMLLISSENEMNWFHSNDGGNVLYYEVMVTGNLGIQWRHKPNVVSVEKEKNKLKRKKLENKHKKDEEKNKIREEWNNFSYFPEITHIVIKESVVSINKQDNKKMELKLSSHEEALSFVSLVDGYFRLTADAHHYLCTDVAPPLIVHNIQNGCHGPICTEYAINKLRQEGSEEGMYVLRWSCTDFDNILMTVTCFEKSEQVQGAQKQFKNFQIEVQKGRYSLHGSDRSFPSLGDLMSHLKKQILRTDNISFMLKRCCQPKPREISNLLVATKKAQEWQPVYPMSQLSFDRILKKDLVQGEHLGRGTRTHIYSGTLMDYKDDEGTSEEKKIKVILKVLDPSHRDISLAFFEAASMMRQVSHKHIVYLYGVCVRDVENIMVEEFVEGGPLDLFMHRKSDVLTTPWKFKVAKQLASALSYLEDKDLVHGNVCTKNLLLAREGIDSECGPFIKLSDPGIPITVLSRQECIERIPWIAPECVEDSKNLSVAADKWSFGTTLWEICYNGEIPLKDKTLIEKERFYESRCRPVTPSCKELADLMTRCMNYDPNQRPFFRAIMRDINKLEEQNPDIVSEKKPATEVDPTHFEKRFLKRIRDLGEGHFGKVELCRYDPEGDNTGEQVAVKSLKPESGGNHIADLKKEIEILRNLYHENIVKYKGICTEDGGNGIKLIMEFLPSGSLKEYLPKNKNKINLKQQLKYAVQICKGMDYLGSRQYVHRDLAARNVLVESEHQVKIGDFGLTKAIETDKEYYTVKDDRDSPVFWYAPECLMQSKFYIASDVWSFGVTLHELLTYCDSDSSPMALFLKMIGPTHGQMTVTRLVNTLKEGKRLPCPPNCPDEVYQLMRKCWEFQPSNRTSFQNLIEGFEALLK

Block 1
Target: Calcium/calmodulin-dependent protein kinase type II subunit alpha (CAMK2A, Homo sapiens, UniProt Q9UQM7)
UniProt Q9UQM7, sequence (whole entry, looked up): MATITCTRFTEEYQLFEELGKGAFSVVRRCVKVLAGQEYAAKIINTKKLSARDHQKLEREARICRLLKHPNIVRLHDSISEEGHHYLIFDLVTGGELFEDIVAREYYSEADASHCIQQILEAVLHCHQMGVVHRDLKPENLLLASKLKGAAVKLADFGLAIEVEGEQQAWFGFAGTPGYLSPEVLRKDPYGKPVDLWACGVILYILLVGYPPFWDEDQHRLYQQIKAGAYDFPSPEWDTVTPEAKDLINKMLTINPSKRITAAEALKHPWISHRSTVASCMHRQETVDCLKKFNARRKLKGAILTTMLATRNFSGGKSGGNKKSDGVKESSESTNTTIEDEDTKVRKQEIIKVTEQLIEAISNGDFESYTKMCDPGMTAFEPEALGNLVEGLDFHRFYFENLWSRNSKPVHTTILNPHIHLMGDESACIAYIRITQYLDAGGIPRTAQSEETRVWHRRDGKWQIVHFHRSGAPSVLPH
Read-out: enzyme activity
Mode: inhibitor
Concentration: 10 µM
Endpoint: inhibition
COc1ccc(-c2cc(=O)c3c(O)c(OC)c(O)cc3o2)cc1: 2%
CCCCNC(=O)NS(=O)(=O)c1ccc(C)cc1: -7%
CC1(C)C=CC(=O)C1: -1%
CC(C)=CCCC(C)CC=O (stereo not shown): -9%
C[C@@H]1O[C@@H](O[C@H]2[C@H](OC(=O)[C@]34CCC(C)(C)C[C@H]3C3=CC[C@@H]5[C@@]6(C)C[C@H](O)[C@H](O[C@@H]7O[C@H](CO)[C@@H](O)[C@H](O)[C@H]7O)[C@@](C)(CO)[C@@H]6CC[C@@]5(C)[C@]3(C)CC4)O[C@H](CO)[C@@H](O)[C@@H]2O)[C@H](O)[C@H](O)[C@H]1O[C@@H]1OC[C@@H](O)[C@H](O)[C@H]1O: -20%
CCCCCCCCCCCCCCC(=O)O: 5%
CO[C@@]1(NC(=O)CSC(F)F)C(=O)N2C(C(=O)O)=C(CSc3nnnn3CCO)CO[C@@H]21: -8%

Block 2
SMILES: C[C@@H](c1cccc(C#N)c1)n1cc(Cl)cc(C(N)=O)c1=N
Read-out: cell-free assay
Technique: competition with immobilised ligand
Concentration: 1 µM
Endpoint: remaining binding
1-phosphatidylinositol 3-phosphate 5-kinase (PIKFYVE, Homo sapiens, UniProt Q9Y2I7): 100%
Bone morphogenetic protein receptor type-2 (BMPR2, Homo sapiens, UniProt Q13873): 100%
Phosphatidylinositol 4,5-bisphosphate 3-kinase catalytic subunit alpha isoform (PIK3CA, Homo sapiens, UniProt P42336, M1043I): 100%
STE20/SPS1-related proline-alanine-rich protein kinase (STK39, Homo sapiens, UniProt Q9UEW8): 100%
Tyrosine-protein kinase JAK1, JH1 (JAK1, Homo sapiens, UniProt P23458): 94%
Serine/threonine-protein kinase pim-2 (PIM2, Homo sapiens, UniProt Q9P1W9): 100%
Phosphatidylinositol 4,5-bisphosphate 3-kinase catalytic subunit alpha isoform (PIK3CA, Homo sapiens, UniProt P42336, H1047L): 96%
Serine/threonine-protein kinase Sgk2 (SGK2, Homo sapiens, UniProt Q9HBY8): 91%
NUAK family SNF1-like kinase 2 (NUAK2, Homo sapiens, UniProt Q9H093): 86%
Serine/threonine-protein kinase MARK2 (MARK2, Homo sapiens, UniProt Q7KZI7): 100%
STE20-like serine/threonine-protein kinase (SLK, Homo sapiens, UniProt Q9H2G2): 88%
Receptor-type tyrosine-protein kinase FLT3 (FLT3, Homo sapiens, UniProt P36888): 100%
Mitogen-activated protein kinase kinase kinase 4 (MAP3K4, Homo sapiens, UniProt Q9Y6R4): 71%
Phosphatidylinositol 4,5-bisphosphate 3-kinase catalytic subunit alpha isoform (PIK3CA, Homo sapiens, UniProt P42336, I800L): 71%
Serine/threonine-protein kinase NIM1 (NIM1K, Homo sapiens, UniProt Q8IY84): 97%

Block 3
SMILES: CC(C)n1cnc(-c2ccc(F)cc2)c1-c1ncc(C(=O)Nc2ccc(N3CCN(C)CC3)cc2)[nH]1
Technique: phase 2a clinical trial
Host: patients with idiopathic pulmonary fibrosis
Endpoint: patients with treatment-emergent adverse events
refers to: interstitial lung disease; dose not given, Grade 2, all drug arms: 0%
refers to: carbon dioxide decreased; 60 mg once daily, Grade 1: 0%
refers to: benign prostatic hyperplasia; dose not given, Grade 5, maximum intensity, all drug arms total: 0%
refers to: idiopathic pulmonary fibrosis; 30 mg once daily, Grade 3: 0%
refers to: drug-induced liver injury; 60 mg once daily, Grade 5: 0%
refers to: left bundle branch block; 60 mg once daily, Grade 2: 0%
refers to: protein urine present; 30 mg once daily, Grade 4: 0%
refers to: drug-induced liver injury; dose not given, Grade 4, all drug arms total: 0%

Mixed results
CC[C@H](C)[C@H](N)C1=N[C@H](C(=O)N[C@@H](CC(C)C)C(=O)N[C@H](CCC(=O)O)C(=O)N[C@H](C(=O)N[C@H]2CCCCNC(=O)[C@H](CC(N)=O)NC(=O)[C@@H](CC(=O)O)NC(=O)[C@H](Cc3cnc[nH]3)NC(=O)[C@@H](Cc3ccccc3)NC(=O)[C@H]([C@@H](C)CC)NC(=O)[C@@H](CCCN)NC2=O)[C@@H](C)CC)CS1  infection rate (Plasmodium berghei; liver stage infection, inhibitor; Huh-7; 10 µM, 24 h, GFP-expressing sporozoites; relative to: control): 95.4%

Excerpt of the above (block 1):
CC1(C)C=CC(=O)C1: -1%
CC(C)=CCCC(C)CC=O (stereo not shown): -9%
C[C@@H]1O[C@@H](O[C@H]2[C@H](OC(=O)[C@]34CCC(C)(C)C[C@H]3C3=CC[C@@H]5[C@@]6(C)C[C@H](O)[C@H](O[C@@H]7O[C@H](CO)[C@@H](O)[C@H](O)[C@H]7O)[C@@](C)(CO)[C@@H]6CC[C@@]5(C)[C@]3(C)CC4)O[C@H](CO)[C@@H](O)[C@@H]2O)[C@H](O)[C@H](O)[C@H]1O[C@@H]1OC[C@@H](O)[C@H](O)[C@H]1O: -20%
